Assay results of several laboratories.
Numbered parts are unrelated; each lists some results of a single study. Values joined by “and” are separate records of one study, mostly repeats; a detail may differ.
UniProt O00506, sequence (whole entry, looked up): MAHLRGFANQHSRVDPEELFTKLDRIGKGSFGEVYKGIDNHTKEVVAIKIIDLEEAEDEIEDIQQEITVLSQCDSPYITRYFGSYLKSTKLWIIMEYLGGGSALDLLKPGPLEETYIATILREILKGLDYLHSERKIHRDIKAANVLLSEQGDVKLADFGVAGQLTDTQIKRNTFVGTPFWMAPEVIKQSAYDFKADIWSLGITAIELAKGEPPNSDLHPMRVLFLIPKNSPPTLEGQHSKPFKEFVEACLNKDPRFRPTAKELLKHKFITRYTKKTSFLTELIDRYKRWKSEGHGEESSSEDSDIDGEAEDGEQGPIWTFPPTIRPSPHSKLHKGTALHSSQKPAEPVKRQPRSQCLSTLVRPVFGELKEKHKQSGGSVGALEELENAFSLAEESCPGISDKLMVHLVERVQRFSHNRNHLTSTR
UniProt P32298, sequence (whole entry, looked up): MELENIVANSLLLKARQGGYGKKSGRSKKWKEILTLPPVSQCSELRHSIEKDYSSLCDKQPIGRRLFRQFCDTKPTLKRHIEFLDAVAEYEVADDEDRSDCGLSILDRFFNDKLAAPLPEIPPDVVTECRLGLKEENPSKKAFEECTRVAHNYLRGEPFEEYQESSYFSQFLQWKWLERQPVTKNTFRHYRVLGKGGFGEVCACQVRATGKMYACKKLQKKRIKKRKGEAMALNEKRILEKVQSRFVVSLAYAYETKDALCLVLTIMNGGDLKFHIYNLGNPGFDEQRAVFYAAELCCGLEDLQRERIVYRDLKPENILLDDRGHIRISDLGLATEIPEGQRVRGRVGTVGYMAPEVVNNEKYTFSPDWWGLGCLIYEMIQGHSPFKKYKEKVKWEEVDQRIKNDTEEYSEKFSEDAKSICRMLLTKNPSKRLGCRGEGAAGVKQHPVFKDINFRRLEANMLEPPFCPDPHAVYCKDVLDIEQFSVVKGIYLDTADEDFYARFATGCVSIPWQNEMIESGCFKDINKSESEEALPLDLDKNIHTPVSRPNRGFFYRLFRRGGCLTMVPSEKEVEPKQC
UniProt O15530, sequence (whole entry, looked up): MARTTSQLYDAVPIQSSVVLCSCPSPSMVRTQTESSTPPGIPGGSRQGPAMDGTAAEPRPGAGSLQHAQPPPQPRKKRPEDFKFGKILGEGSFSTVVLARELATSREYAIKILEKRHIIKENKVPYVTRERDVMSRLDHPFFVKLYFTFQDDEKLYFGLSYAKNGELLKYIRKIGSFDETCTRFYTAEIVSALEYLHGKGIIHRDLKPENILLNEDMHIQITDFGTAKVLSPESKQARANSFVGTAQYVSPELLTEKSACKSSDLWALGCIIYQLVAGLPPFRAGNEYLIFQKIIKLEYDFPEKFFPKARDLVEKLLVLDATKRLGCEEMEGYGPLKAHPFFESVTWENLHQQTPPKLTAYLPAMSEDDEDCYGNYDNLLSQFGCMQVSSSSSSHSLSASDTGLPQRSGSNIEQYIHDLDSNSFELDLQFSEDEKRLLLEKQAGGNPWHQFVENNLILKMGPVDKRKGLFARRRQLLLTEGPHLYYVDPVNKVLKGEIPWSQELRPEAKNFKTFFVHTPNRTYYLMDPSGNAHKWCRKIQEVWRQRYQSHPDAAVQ

Study 1 — cell line: mouse MPNST tumor cells; technique: high-content nuclear imaging; refers to: cell number; tested at: 10 µM; time: 12 h; setting: mean of 2 replicates; relative to: plate mean; reading: higher = more cells; measurement: nuclei count
CCN(CC)CCOC(=O)C1(c2ccc([N+](=O)[O-])cc2)CCCC1: 2.21 z-score
CCN(CC)CCCCC1CCN(CC(=O)N2c3ccccc3C(=O)Nc3cccnc32)CC1: 0.192 z-score
c1ccc(COCCCc2c[nH]cn2)cc1: 2.11 z-score
CN1CCN(CC/C=C2/c3ccccc3Sc3ccc(S(=O)(=O)N(C)C)cc32)CC1: -4.73 z-score
COc1ccccc1C(=O)Nc1cc2c(cc1N1CCCC1)n(C)c(=O)n2C: 1.78 z-score and 4.16 z-score
Cc1ccc(NC(=O)C(C)C)cc1C1CCN(Cc2ccc(Oc3ccc(F)c(F)c3)cc2)CC1: -6.16 z-score
O=C(NNc1nc2cc(F)ccc2n2cccc12)c1cnccn1: -2.79 z-score
Cc1c(O)cccc1C(=O)N[C@@H](CSc1ccccc1)[C@H](O)CN1C[C@H]2CCCC[C@H]2C[C@H]1C(=O)NC(C)(C)C: 1.92 z-score
CO/N=C(\C(=O)N[C@@H]1C(=O)N2C(C(=O)O)=C(COC(C)=O)CS[C@H]12)c1csc(N)n1: 0.448 z-score

Study 2 — observed: enzyme activity; action: inhibitor; tested at: 77 µM; relative to: untreated; measurement: remaining activity
Target: DNA polymerase theta, ATPase domain (POLQ, Homo sapiens, UniProt O75417)
UniProt O75417, sequence (whole entry, unmodified, looked up): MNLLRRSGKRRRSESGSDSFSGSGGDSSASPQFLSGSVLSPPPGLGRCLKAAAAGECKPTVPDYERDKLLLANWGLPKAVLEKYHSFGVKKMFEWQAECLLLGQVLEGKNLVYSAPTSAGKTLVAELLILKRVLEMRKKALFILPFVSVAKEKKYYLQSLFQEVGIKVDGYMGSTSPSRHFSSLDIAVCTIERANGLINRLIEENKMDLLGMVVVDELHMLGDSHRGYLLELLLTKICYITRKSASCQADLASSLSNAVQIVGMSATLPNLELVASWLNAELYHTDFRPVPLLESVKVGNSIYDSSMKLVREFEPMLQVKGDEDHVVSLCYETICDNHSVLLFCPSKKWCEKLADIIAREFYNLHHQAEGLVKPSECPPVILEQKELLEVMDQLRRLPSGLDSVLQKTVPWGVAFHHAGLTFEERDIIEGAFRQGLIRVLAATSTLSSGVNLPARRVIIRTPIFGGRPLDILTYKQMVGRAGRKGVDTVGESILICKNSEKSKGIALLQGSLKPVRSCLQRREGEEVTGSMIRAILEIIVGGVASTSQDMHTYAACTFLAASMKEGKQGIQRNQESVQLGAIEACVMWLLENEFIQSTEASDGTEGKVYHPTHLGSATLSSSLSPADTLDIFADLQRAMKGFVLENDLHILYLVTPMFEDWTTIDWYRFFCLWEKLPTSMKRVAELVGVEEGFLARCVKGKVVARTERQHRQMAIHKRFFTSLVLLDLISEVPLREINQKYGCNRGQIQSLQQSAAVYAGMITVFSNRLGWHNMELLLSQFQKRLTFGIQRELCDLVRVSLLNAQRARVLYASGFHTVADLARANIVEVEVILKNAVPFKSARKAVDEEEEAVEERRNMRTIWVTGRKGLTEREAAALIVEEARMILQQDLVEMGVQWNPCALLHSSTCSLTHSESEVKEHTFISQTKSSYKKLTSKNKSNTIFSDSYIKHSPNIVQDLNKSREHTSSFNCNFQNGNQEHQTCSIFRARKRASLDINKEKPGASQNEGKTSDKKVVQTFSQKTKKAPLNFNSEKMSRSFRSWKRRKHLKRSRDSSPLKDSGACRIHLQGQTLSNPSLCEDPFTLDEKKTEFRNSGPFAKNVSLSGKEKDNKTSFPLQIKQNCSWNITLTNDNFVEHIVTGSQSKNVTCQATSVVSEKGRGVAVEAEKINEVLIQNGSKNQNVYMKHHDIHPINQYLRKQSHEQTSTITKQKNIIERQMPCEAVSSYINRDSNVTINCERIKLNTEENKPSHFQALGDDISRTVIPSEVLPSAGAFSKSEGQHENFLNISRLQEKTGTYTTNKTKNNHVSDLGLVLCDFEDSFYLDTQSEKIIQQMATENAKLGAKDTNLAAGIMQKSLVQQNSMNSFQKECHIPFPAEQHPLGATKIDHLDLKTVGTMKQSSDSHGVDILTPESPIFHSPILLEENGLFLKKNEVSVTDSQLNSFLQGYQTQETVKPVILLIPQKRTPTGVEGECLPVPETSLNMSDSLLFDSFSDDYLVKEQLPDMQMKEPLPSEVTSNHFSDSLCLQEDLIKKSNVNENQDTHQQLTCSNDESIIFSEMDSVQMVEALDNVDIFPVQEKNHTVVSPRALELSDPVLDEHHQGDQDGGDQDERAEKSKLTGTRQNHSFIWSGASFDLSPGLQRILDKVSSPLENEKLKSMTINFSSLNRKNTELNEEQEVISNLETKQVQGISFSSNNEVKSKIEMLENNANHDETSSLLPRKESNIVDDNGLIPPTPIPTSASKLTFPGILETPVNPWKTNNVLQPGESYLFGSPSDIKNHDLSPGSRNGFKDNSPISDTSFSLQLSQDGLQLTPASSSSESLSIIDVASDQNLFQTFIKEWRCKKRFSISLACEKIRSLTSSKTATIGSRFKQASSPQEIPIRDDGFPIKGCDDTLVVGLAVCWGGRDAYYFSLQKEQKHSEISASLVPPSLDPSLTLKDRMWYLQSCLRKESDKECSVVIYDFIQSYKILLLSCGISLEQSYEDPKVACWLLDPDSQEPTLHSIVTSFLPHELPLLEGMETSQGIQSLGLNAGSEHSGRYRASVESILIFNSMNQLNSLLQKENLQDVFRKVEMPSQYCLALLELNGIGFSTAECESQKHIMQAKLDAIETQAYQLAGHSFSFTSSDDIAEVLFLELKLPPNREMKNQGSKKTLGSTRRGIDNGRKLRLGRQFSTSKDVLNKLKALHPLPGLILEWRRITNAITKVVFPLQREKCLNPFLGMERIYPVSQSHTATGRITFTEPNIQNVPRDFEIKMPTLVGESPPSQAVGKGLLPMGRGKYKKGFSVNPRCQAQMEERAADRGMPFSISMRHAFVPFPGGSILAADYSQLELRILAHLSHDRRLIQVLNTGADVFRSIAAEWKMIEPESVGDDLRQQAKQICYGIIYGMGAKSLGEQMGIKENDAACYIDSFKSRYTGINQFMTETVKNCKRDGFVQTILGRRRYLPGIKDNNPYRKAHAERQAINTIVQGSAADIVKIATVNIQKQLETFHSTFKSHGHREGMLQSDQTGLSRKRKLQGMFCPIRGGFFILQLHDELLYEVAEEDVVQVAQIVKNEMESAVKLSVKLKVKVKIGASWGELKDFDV
N#C[C@@H]1C[C@@H]2C[C@@H]2N1C(=O)[C@@H](N)C12CC3CC(CC(O)(C3)C1)C2: 94.6%
C[C@H]1C[C@@H]2[C@H]([C@@H](O)C[C@@]3(C)[C@H]2CC[C@]3(O)C(=O)CO)[C@@]2(C)C=CC(=O)C=C12: 99.5% and 97%
COc1cc(/C=C/C(=O)N2CCN(CC(=O)N3CCCC3)CC2)cc(OC)c1OC: 104%
CCOc1ccc(NC(C)=O)cc1: 101% and 91.7%
COc1nccc(-c2c(-c3ccc(F)cc3)ncn2C2CCNCC2)n1: 112% and 118% and 119%
C=C(CC)C(=O)c1ccc(OCC(=O)O)c(Cl)c1Cl: 97.7%

Study 3 — observed: enzyme activity; action: inhibitor; tested at: 0.5 µM; relative to: control; measurement: remaining activity
Target: Tyrosine-protein kinase ITK/TSK (ITK, Homo sapiens, UniProt Q08881)
UniProt Q08881, sequence (whole entry, looked up): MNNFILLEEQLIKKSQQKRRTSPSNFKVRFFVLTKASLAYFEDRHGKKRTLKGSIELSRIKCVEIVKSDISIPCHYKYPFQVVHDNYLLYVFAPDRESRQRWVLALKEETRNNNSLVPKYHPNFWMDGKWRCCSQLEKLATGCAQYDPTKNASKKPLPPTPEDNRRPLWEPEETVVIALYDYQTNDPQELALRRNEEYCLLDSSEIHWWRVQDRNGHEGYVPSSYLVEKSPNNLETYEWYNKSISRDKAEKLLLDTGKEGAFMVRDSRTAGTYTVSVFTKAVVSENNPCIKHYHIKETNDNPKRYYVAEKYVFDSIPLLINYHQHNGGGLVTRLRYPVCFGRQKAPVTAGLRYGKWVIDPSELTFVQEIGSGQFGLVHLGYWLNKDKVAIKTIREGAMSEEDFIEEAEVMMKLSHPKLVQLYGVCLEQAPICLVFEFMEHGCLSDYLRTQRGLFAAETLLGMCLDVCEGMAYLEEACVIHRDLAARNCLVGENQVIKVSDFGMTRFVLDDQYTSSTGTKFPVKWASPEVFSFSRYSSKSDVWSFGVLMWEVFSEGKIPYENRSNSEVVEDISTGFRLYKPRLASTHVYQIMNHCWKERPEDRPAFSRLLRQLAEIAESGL
COc1ccc(CNC(=O)Nc2ncc([N+](=O)[O-])s2)cc1: 89.5%
CC(C)[C@H](CO)Nc1nc(Nc2cc(N)cc(Cl)c2)c2ncn(C(C)C)c2n1: 80.2%
Cc1nc(-c2ccccc2)c(-c2ccncc2)o1: 97.1%
Cn1c2ccccc2c2c3c(c4c5ccccc5n(CCC#N)c4c21)CNC3=O: 4.32%
O=C(O)c1ccc2c3c1cccc3c(=O)n1c3ccccc3nc21: 97.7%
O=S(=O)(c1cccc2cnccc12)N1CCCNCC1: 90.7%
CCOC(=O)c1c(C)[nH]c(/C=C2\C(=O)Nc3ccccc32)c1C: 86.3%
CN(C)c1ccc(C=C2C(=O)Nc3ccccc32)cc1: 99%
Oc1ccc(-c2nc(-c3ccncc3)c(-c3ccc(F)cc3)[nH]2)cc1: 90.9%
OCC(O)CCON=C1C(c2c(O)[nH]c3ccccc23)=Nc2ccccc21 (stereo not shown): 34.8%
CNC(=O)c1cc(Oc2ccc(NC(=O)Nc3ccc(Cl)c(C(F)(F)F)c3)cc2)ccn1: 106%
Cn1sc(=O)n(Cc2ccccc2)c1=O: 93.2%
N#CC(C#N)=C(N)/C(C#N)=C/c1ccc(O)cc1: 98.7%
Nc1ncnc2n[nH]c(Nc3ccc(F)cc3)c12: 93.9%

Study 4 — SMILES: CCC(=N\O)/C(C)=C/c1ccc(F)cc1; observed: cell-free assay; technique: competition with immobilised ligand; tested at: 1 µM; measurement: remaining binding
Mitogen-activated protein kinase 7 (MAPK7, Homo sapiens, UniProt Q13164): 88%
Serine/threonine-protein kinase OSR1 (OXSR1, Homo sapiens, UniProt O95747): 80%
3-phosphoinositide-dependent protein kinase 1 (PDPK1, Homo sapiens, UniProt O15530): 87%
Tyrosine-protein kinase ABL1, phosphorylated (ABL1, Homo sapiens, UniProt P00519, F317L): 81%
Serine/threonine-protein kinase pim-3 (PIM3, Homo sapiens, UniProt Q86V86): 96%
G protein-coupled receptor kinase 3 (GRK3, Homo sapiens, UniProt P35626): 92%
G protein-coupled receptor kinase 4 (GRK4, Homo sapiens, UniProt P32298): 100%
Interleukin-1 receptor-associated kinase 4 (IRAK4, Homo sapiens, UniProt Q9NWZ3): 100%
Serine/threonine-protein kinase SIK3 (SIK3, Homo sapiens, UniProt Q9Y2K2): 68%
Tyrosine-protein kinase JAK1, JH1 (JAK1, Homo sapiens, UniProt P23458): 96%
Serine/threonine-protein kinase 25 (STK25, Homo sapiens, UniProt O00506): 86%

For quick reference, copied from above (study 1):
CCN(CC)CCOC(=O)C1(c2ccc([N+](=O)[O-])cc2)CCCC1: 2.21 z-score
CCN(CC)CCCCC1CCN(CC(=O)N2c3ccccc3C(=O)Nc3cccnc32)CC1: 0.192 z-score
c1ccc(COCCCc2c[nH]cn2)cc1: 2.11 z-score
CN1CCN(CC/C=C2/c3ccccc3Sc3ccc(S(=O)(=O)N(C)C)cc32)CC1: -4.73 z-score
